Measured values collected from several papers.
Protocols differ between the studies behind these lines.
Sequence of UniProt O43613 (whole entry, looked up): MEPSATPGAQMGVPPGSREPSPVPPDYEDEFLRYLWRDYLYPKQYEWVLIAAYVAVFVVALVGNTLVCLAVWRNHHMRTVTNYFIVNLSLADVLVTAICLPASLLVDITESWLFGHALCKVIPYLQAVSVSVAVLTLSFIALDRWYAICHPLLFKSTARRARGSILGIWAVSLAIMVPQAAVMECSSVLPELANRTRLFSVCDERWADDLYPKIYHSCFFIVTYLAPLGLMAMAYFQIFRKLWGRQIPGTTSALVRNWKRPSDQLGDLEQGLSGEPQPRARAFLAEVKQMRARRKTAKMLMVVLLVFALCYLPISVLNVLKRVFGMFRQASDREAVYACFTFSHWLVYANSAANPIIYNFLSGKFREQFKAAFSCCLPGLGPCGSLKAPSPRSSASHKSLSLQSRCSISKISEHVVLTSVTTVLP

| SMILES | tested on | test | system | setting | endpoint | result |
| --- | --- | --- | --- | --- | --- | --- |
| Oc1ccc(C(c2ccc(O)cc2)(C(F)(F)F)C(F)(F)F)cc1 | – | – | male rat, plasma | intravenous, 34 mg/kg, single dose | half-life | 8.01 h |
| COc1cccc(-c2ccc(NC(=O)C3=C(C(=O)O)CCC3)c(F)c2)c1 | – | – | male human, plasma | oral, 40 mg, single dose, fasted, healthy volunteers | half-life | 41.4 h |
| CCN1CCN(c2ccc(Nc3cc(N(C)C(=O)Nc4c(Cl)c(OC)cc(OC)c4Cl)ncn3)cc2)CC1 | – | LC-MS/MS | juvenile male Crl:WI(Han) rats, plasma | oral gavage, 0.1 mg/kg/day, postnatal day 17 | half-life | 5.87 h |
| COc1cc2c(cc1OC)C(Cc1cccc([N+](=O)[O-])c1)N(CC(=O)NCc1ccccc1)CC2 (stereo not shown) | HCRTR1 (Homo sapiens, UniProt O43613) | calcium signal, antagonist, fluorescence | – | – | Kb | > 10 µM |
| C[C@@H]1CCC[C@H](n2cnc(-c3cc(Cl)ccc3-n3cc(Cl)nn3)cc2=O)c2cc(ccn2)-c2c(cnn2C(F)F)NC1=O | – | – | human, plasma | oral, 200 mg, single dose, fed, healthy volunteers | half-life | 9 h |
| CCCC[C@H](NC(C)=O)C(=O)N[C@H]1CCC(=O)NC[C@@H](C(=O)N[C@@H](Cc2c[nH]c3ccccc23)C(N)=O)NC(=O)[C@H](CCCNC(=N)N)NC(=O)[C@@H](Cc2ccccc2)NC(=O)[C@H](Cc2c[nH]cn2)NC1=O | – | – | female rat, plasma | subcutaneous, 1 mg/kg/day, multiple doses, once daily | half-life | 0.624 h |
| Cc1nc2cccc(OCC(C)(C)C(=O)NC(C)C)c2c(N)c1C(=O)O | – | – | male Sprague-Dawley rat, plasma | oral gavage, 30 mg/kg, day 1 | half-life | 0.88 h |
| Cn1nnc2c(C(N)=O)ncn2c1=O | – | – | male athymic rat, intracranial U87 glioma, tumour extracellular fluid | oral, 50 mg/kg, uncorrected microdialysis, together with: before cediranib | half-life | 2.2 h |
| Cc1cc(C(=O)NC(C)(C)COc2cccc3c2C(N)=NS(=O)(=O)N3)cc(C)n1 | – | – | female Sprague-Dawley rat, plasma | oral, 100 mg/kg, single dose | half-life | 1.25 h |
| CNCc1ccc(-c2[nH]c3cc(F)cc4c3c2CCNC4=O)cc1 | – | – | human, plasma | oral, 300 mg, fasted, mean | half-life | 23.5 h |

A few entries again:
| SMILES | tested on | test | system | setting | endpoint | result |
| --- | --- | --- | --- | --- | --- | --- |
| CCN1CCN(c2ccc(Nc3cc(N(C)C(=O)Nc4c(Cl)c(OC)cc(OC)c4Cl)ncn3)cc2)CC1 | – | LC-MS/MS | juvenile male Crl:WI(Han) rats, plasma | oral gavage, 0.1 mg/kg/day, postnatal day 17 | half-life | 5.87 h |
